Measurements collected from several papers.
Protocols differ between the studies behind these lines. “And” joins repeats or separate records; there may be more than shown.

Under viability, `C/C=C1\CN(C)[C@H]2C[C@@]3(C(=O)N(OC)c4ccccc43)[C@H]3C[C@@H]1[C@@H]2CO3` is recorded as “no effect” (HT-22; CCK-8; up to 100 µM, 24 h).
For `CO[C@H]1C[C@@H]2CC[C@@H](C)[C@@](O)(O2)C(=O)C(=O)N2CCCC[C@H]2C(=O)O[C@H]([C@H](C)C[C@@H]2CC[C@@H](OC(=O)NCCOCCOCCOCCOCCOCCOCCOCCOCCC(=O)N3CCc4cc(Cn5nc(-c6ccc7oc(N)nc7c6)c6c(N)ncnc65)ccc4C3)[C@H](OC)C2)C[C@@H](O)[C@H](C)/C=C(\C)[C@@H](O)[C@@H](OC)C(=O)[C@H](C)C[C@H](C)/C=C/C=C/C=C/1C`, “dose-reducing adverse events” read 0% (phase 1 dose escalation, item: gastric haemorrhage; advanced solid tumour patients; intravenous, 10 mg weekly, grade ≥3).
The viability of `CC(CCc1ccccc1)NC(C)C(O)c1ccc(O)cc1` (stereo not drawn) is reported as 96.8% (MCF-10A; CellTiter-Glo; concentration not given; reference: normalised, mean of replicates).
`CC(C)[C@H](N)C(=O)N1CCC[C@H]1B(O)O` gave a viability of 84.6% and 81.9% and 85.1% (Ker-CT wild type; cell death, CellTiter-Glo; 2 µM).
For `CC[C@H](C)[C@H](NC(=O)[C@H](Cc1ccccc1)NC(=O)[C@H](CCC(=O)O)NC(=O)[C@H](CCCNC(=N)N)NC(=O)[C@H](C)NC(=O)[C@H](C)NC(=O)[C@H](CCC(N)=O)NC(=O)[C@H](CCC(=O)O)NC(=O)[C@H](CCC(=O)O)NC(=O)[C@H](CC(C)C)NC(=O)[C@H](Cc1ccc(O)cc1)NC(=O)[C@H](CO)NC(=O)[C@H](CO)NC(=O)[C@@H](NC(=O)[C@H](CC(=O)O)NC(=O)[C@H](CO)NC(=O)[C@@H](NC(=O)[C@H](Cc1ccccc1)NC(=O)[C@@H](NC(=O)CNC(=O)[C@H](CCC(=O)O)NC(=O)[C@H](C)NC(=O)CCc1c[nH]cn1)[C@@H](C)O)[C@@H](C)O)C(C)C)C(=O)N[C@@H](C)C(=O)N[C@@H](Cc1c[nH]c2ccccc12)C(=O)N[C@@H](CC(C)C)C(=O)N[C@H](C(=O)N[C@@H](CCCNC(=N)N)C(=O)NCC(=O)N[C@@H](CCCNC(=N)N)C(=O)N[C@@H](CCCCNC(=O)COCCOCCNC(=O)COCCOCCNC(=O)CC[C@H](NC(=O)CCCCCCCCCCCCCCCCC(=O)O)C(=O)O)C(=O)NCC(=O)NCC(=O)N[C@@H](CO)C(=O)N[C@@H](CCCCNc1c(NCCCCCN(O)C(=O)CCC(=O)NCCCCCN(O)C(=O)CCC(=O)NCCCCCN(O)C(C)=O)c(=O)c1=O)C(=O)O)C(C)C` [zirconium-89 labelled], the tissue uptake was 0.85 %ID/g (rat, lung; sc, 3 nmol/kg, 72 h, ex vivo).
With `Cc1nn(-c2nc3ccc(Cl)c(Cl)c3[nH]2)c(O)c1C1OC(=O)c2ccccc21` (stereo not drawn) the viability was 97.8% and 88.5% and 102% and 96.2% and 95.5% (RAW-ISG; CCK-8; 30 µM).
The viability of `CCC(=O)CCCCC[C@@H]1NC(=O)[C@H]2CCCCN2C(=O)[C@H]([C@@H](C)CC)NC(=O)[C@H](Cc2cn(OC)c3ccccc23)NC1=O` is reported as 8.08% (OCI-Ly1; 0.5 µM, 120 h).
`CC[C@H](C)[C@@H]1NC(=O)[C@@H]2CCCN2C(=O)[C@H](CC(C)C)NC(=O)[C@H](CC(C)C)NC(=O)CNC(=O)[C@@H](NC(=O)[C@@H](NC(=O)[C@H](CC(=O)O)NC(=O)CNC(=O)[C@@H](NC(=O)[C@H](C)NC(=O)CNC(=O)[C@H](CCCCN)NC(=O)[C@H](CC(C)C)NC(=O)[C@H](CC(C)C)NC(=O)[C@H](CCCCN)NC(=O)CNC(=O)[C@@H](NC(=O)[C@@H](N)CC(C)C)C(C)C)C(C)C)C(C)C)CSSC[C@@H](C(=O)O)NC1=O` — result for “log2 fold change”: -2.26 (RNA-seq, item: novel.227 mRNA; mouse traumatic brain injury, frontal cortex and hippocampus; dose not given; reference: TBI plus compound vs TBI).
Under viability, `C=C[C@]12CN(C)[C@@H]3[C@H]4CO[C@H](C[C@H]41)[C@]1(C(=O)Nc4ccccc41)[C@@H]32` is recorded as “no effect” (HT-22; CCK-8; up to 100 µM, 24 h).
The viability of `c1ccc([C@@H]2C[C@H]2NC2CCNCC2)cc1` is reported as 200% (OCI-Ly1; 0.1 µM, 120 h).
`COC[C@@H]([C@H](O)[C@H](O)C(=O)NCC[C@H](C)c1nc(/C=C/C[C@@H]2O[C@]3(C[C@@H](O)[C@@H]2C)O[C@H]([C@H](C[C@H](O)[C@H](C)[C@H](O)[C@H](C)/C=C(C)/C(C)=C/C=C/C(C)=C\C#N)OC)[C@H](OP(=O)(O)O)C3(C)C)co1)N(C)C` gave a viability of 120% (MCF-10A; CellTiter-Glo; concentration not given; reference: normalised luminescence).
Under “grade 3 Hypertension”, `COc1cc2c(Oc3ccc4[nH]c(C)cc4c3F)ccnc2cc1OCC1(N)CC1` is recorded as 0% (paediatric recurrent refractory sarcoma; 12 mg).
